Assay results collected from several papers.
A part holds a random share of what one study measured.

Sample 1
Target: RING finger protein unkempt homolog, zinc fingers 1-6, GST-SBP tag (UNK, Homo sapiens, UniProt Q9C0B0, residues 30-357)
Technique: RNA Bind-n-Seq
Form: RNA
Medium: in vitro
Tested at: not given
Setting: RNA with constant flanks, human and mouse sites, ends assumed
Relative to: input RNA pool
Direction: higher = stronger binding
Residues (chain): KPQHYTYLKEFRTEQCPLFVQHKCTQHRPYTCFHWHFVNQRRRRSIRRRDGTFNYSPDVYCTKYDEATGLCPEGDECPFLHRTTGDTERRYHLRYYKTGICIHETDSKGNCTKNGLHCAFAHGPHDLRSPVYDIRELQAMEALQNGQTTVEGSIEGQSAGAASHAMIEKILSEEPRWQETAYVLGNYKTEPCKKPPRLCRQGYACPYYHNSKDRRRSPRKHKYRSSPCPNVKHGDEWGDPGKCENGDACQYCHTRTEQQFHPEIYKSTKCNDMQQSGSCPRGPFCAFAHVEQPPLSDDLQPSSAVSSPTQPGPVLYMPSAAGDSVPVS
Strand | bound/input enrichment [ratio]
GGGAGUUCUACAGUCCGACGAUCAGUUUGCUUGGGUUGGUUUUUUGUUUUUGUUUUUCCUGGAAAACAUUCAGUGAGAGAAGUAAUAGAUUGAAAACAAAUGAAUUCUCAACUUCUAUGUUGACCAUGUAGAGAGUUCAGACACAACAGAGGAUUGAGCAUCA | 0.32
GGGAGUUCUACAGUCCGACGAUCGCUUGUGCAGCUUACAAUCUAUUUAACUAUUAGAGGCCCUGUGAGAUGUAGGCAGUUAUUUACAGAUGAGAAAACUAACACAGCAGUGGCAAUGCUGGGAAUGGCCAACAGGCUUGGAAUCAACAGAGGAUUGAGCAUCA | 0.486
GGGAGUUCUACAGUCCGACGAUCCGAGCAGUGGAGUGUUGUGUGAGGUUGCUUCAUGUGCGAAAUGGAAAUUGUAAAUAUCAUCUAGGUGAAGAAACAUUUAAAUUAGCUCAGACAUACAUGGAUAAGCUGUCUAAACAUGGCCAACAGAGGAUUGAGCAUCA | 0.485
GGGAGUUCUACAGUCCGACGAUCACCACACCUCCAAAUCAAGGAAGGCCAGAUUCUCCUGUCUAUGCUAACCUUCAAGAACUGAAAAUAUCCCAGUCUGCUCUUCCCCCACUUCCUGGGAGCCCGGCAAUUCAGAUUAAUGGACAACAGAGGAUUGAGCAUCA | 0.269
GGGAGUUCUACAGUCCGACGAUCAAGACAAAACUGGACACUCUAGCUACUGGUCAUCUUUUCCAGGAAGUGAGAUGCAUGAAACUAGUGCAGCAUCCUAACAUCGUCCGCCUUUAUGAAGUUAUUGACACCCAGACCAAACUACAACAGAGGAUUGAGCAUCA | 0.187
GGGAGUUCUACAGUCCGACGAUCAGGUUAAAGAGAAAUGACUUUUUAGGAACUAGACUUGAACGUAUAAUUAAUAUGUGGAACUAGUUUGCUUUUAUAAUUCAUUGUAUCAAGAAGGAGUCAUGUUUUAAAUCCAAGGCAUUGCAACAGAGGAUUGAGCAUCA | 0.882
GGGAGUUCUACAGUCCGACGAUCGCGCUGCGCGGCGUCAUUGCUCCCGCCCUAUAUACCUACUUCCGCCCGCGAGCCACUUCCUUUCCUUUCAGCGGCGCGCGGCUGCAAGAUGGCGGUGCAGAUUUCCAAGAAGAGGAAGUUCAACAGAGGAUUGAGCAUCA | 0.0979
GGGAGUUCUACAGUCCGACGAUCAGGCCUUGGUUUACCCCGAGAUCCAUCUAUAUGGAAGCAUCGACAGUGGACUGUAAUGAUUUAGGGCUUUUAAACUUCCCAGCCAGAUUGCCUGCCGACACACAGAUUCUGCUCCUACAGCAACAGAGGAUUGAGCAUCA | 0.222
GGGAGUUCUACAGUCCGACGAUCAUUAUUCAGGUUGAUAAAGCCUAUGACUACCUCGUUCAGAAUACAUCAUUUGCUAAUAAAUUAGGUUUUACUGUUACUGUUGGAAAUAACCGUGGCAUCUACCUCCGAGAUCCUGUUCAGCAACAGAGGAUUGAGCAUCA | 0.924
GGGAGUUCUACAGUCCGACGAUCGACAACAAAAUUAUAGAAUGCAAAUUUGAGAACAAUAGCUGGGUCUUCAUGAGACAGAGGAUAGACAAAAGUUUCCCAAAUGCCUACAACACAGCCAUGGCUGUGUGCAAUAGCAUCUCGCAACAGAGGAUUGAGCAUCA | 6.8
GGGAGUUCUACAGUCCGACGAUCCUGGAGACUAAACUCAAAGCUUCUGAAGAAGAAAAGCAGAGAAUUAAAAAGGAUGUGGAGUCACUGAUGGAGAAACACAGUGUCCUGGAGAAAGGCUUCUUGAAGGAAAAGGAGCAGGAUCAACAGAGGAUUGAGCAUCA | 0.187

Sample 2
Target: Sal-like protein 4, full length isoform A (SALL4, Homo sapiens, UniProt Q9UJQ4, residues 1-1053)
UniProt Q9UJQ4, sequence (whole entry, looked up): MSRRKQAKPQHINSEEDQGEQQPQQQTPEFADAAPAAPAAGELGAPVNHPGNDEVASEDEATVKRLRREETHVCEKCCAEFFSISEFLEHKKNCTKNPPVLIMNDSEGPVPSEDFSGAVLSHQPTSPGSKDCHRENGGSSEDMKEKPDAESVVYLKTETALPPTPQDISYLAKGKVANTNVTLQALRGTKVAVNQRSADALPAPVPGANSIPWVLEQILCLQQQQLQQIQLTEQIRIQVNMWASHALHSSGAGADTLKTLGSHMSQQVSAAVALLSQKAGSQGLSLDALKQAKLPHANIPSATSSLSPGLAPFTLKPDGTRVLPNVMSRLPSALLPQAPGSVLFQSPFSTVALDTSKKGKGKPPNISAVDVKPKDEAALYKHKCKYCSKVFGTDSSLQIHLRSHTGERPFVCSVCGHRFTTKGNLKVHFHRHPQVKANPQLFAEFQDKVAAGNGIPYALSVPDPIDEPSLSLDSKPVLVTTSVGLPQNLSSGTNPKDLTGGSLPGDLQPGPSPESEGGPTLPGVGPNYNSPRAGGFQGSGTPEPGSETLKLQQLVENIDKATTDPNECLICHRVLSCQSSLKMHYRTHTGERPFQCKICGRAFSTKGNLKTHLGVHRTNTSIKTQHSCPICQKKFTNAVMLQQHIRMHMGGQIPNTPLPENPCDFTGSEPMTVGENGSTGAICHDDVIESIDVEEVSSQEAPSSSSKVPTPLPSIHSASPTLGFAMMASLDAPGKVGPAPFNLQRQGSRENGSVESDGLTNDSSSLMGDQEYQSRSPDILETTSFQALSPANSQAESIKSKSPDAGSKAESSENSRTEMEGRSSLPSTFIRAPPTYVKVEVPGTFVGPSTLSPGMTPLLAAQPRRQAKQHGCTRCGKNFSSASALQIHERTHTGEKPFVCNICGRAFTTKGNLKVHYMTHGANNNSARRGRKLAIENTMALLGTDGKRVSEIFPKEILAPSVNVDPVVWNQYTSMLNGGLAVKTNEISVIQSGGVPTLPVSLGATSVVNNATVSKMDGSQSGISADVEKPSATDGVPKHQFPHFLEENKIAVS
Technique: universal PBM
Form: double-stranded DNA, one strand shown
Medium: in vitro
Tested at: 600 nM
Setting: 8-mer, flanks averaged, mean of replicates
Direction: higher = stronger binding
Strand | E-score
CATTGCGG | -0.168
GTAATTGA | 0.169
CCTTCATA | 0.212
CCACTGGA | -0.285
GGTGACCA | -0.255
ACAAGGTC | -0.0441
TCATGTCA | 0.14
CGACATCC | -0.218
CATTACTA | 0.312
ATCCTAAT | 0.176
CTTGTTGC | 0.051
CGCCACAG | -0.302
CAATGTCA | 0.214
CTGACATA | 0.21
CAACGCCC | -0.223
CCATAACG | 0.121
CATGTTGG | 0.0584
ACGCGACA | -0.0184
CTAATTAG | 0.209
ACGTGCGC | -0.118
ATTAGGAC | 0.242
ACGGAACT | -0.0535
GCGGTAAC | 0.000425
CCTTCGCA | -0.0264
CCCTTCAA | 0.00784

Sample 3
Target: Ras GTPase-activating protein-binding protein 1, RRM domain (G3BP1, Homo sapiens, UniProt Q13283)
UniProt Q13283, sequence (whole entry, looked up): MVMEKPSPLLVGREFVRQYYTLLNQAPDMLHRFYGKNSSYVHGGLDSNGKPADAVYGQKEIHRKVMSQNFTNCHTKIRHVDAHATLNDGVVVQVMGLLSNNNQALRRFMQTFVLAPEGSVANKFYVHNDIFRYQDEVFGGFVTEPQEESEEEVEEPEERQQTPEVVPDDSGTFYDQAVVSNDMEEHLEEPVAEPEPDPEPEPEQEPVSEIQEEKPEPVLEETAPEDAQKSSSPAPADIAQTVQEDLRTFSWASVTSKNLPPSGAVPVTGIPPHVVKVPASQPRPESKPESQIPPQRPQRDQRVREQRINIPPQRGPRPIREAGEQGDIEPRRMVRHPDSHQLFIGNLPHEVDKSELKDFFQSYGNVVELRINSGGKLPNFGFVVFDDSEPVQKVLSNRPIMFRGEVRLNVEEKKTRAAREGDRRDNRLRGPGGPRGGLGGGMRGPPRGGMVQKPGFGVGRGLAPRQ
Technique: RNA Bind-n-Seq
Form: RNA
Medium: in vitro
Tested at: 1 µM
Setting: whole 134-nt RNA, ends assumed
Added: 150 mM KCl
Relative to: input library
Direction: higher = stronger binding
Strand | log2 enrichment
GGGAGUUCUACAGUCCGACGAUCGUCCUGUGCUACACAUCGUAUGUACCGAAUCGGUUUUUGGGGUUUUUGGGGUUUUUGGAAAGUAUUAUGUUACGCCGUUCGGAUCUGCACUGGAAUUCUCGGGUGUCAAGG | -0.244
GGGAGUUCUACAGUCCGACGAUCAGUCCUGUGCUACACAUCGUAUGUACCGAAUCGGGUUUUUGGGAAAAAAAGGGUGGGAAAGUAUUAUGUUACGCCGUUCGGAUCUGCACUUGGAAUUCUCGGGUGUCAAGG | 0.44
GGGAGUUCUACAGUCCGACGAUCAGUCCUGUGCUACACAUCGUAUGUACCGAAUCGGAAAAAAAGGUUUUUGGUUUUUGGAAAGUAUUAUGUUACGCCGUUCGGAUCUGCACUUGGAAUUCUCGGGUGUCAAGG | -0.33
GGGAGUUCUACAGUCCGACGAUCUGGCUUUCACCCCCAACCAGUGACCAAAGACUUGACCACUCAAAGUCCAGCUCCCCAGAACACUGCUCGACAUGGACACCGGUGUGAUUGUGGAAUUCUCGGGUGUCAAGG | 0.0883
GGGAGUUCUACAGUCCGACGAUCCACAGACAUCACGCACCCACACAGACACAGAGGGAAGGGGUUGGGAUGGGGACAGGGUGCACAGCAGGGCGGGGUAGGACCCCAGCCCCUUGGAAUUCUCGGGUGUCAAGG | -0.152
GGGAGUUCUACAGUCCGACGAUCUGUGCUACACAUCGUAUGUACCGAAUCGGGGUUUUUGGGGUUUUUUUGGGGUUUUUUUGGGGAAAGUAUUAUGUUACGCCGUUCGGAUCUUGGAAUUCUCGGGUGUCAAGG | 1.34
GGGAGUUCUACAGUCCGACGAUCUCCUCAAGUCCUGUGCUACACAUCGUAUGUACCGAAUCGGCGGGGCGGCGGGAAAGUAUUAUGUUACGCCGUUCGGAUCUGCACUUCCAGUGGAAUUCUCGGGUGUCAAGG | -0.136
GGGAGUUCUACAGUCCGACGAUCCACAGACAACACGCACCCACACAGACACAGAGGGAAGGGGUUGGGAUGGGGACAGGGUGCACAGCAGGGCGGGGUAGGACCUCAGCCCCUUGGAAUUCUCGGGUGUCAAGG | -0.358
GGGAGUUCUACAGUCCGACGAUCACCAUGCCGGUGGGCAUCUUUGGGAAGUGGGGCAAGGGGGGGAUAGGGAGGGGGGUAACACUUUGGGAACAGGUGGUCCCAGGUCGUUUCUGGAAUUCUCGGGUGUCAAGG | -0.369
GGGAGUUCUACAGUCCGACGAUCACCAUGCAGGUGGGCAUCUUUGGGAAGUGGGGCAAGGGGGGGAUAGGGAGGGGGGUAACACUUUGGGAACAGGUGGUCCCAGGUCGUUGCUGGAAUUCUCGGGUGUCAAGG | 1.28

Sample 4
Target: RNA binding protein fox-1 homolog 2, RRM domain, GST-SBP tag (RBFOX2, Homo sapiens, UniProt O43251-10, residues 100-194)
Technique: RNA Bind-n-Seq
Form: RNA
Medium: in vitro
Tested at: 365 nM
Setting: natural RNA segment, single round, ends assumed
Relative to: no-protein control
Direction: higher = stronger binding
Target sequence (chain): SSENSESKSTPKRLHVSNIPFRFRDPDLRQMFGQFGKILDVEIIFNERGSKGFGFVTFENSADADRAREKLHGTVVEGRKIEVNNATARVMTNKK
Strand | RBNS enrichment (R)
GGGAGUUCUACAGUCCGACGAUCAAAAUGACAUCUAAGCUUUACCUGGUCACCAUGUGAUGUGAUCAGAUGCUUGAAAUUUAACACUUUUCACUUGGUUCUUAUACUGAAUGCCGACUCUGCUCUGUGUUAGAUGGAAUUCUCGGGUGCCAA | 0.506
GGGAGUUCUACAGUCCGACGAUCUGUGAAUUCAUUACGAAGAAUGUUCGAGAGAAAGCAGGGGUCUAAUCCAAAAGAAAUGUCAUUAACCAAUACUCCAAGUCCUUGAGUUUUGUUAUAUCUGAACUAGUUGAUGGAAUUCUCGGGUGCCAA | 0.752
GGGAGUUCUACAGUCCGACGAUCCAGACAGGCAGCUUUCCCAGCUGGUUAAAGAAGCUGGGCCCUUUUCCUCCCACACCCUGCCAGCCUUGCAUAAGCCAUUUGUUGCAGCAUUUGUUGCUCUUGGUCCAGUCUGGAAUUCUCGGGUGCCAA | 0.627
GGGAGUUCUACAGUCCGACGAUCUUAAAAAACUGCCUUAGGGUUUUAAAACCUUCCCUACAGUUAUAACCACGUGUAAUUUUGUGGAAAUGAUAUAACAGCUAUUAAUACUACUAUAACAUAGGCAUAAAUAUUGGAAUUCUCGGGUGCCAA | 0.533
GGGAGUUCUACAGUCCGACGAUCGUAAUAAUAGUGUAAGUUCAGUAAAUCCAGUCCAAAUUCUCAUCACAUGUAUUAUUUGAUACUAAAUUUUCAAUUAUUACUUCAAAAUAAGAGUCUGAGGAUUUCUUCUUUGGAAUUCUCGGGUGCCAA | 0.432
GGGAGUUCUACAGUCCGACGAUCUGCAUUUGAUUGUAAACUGUACUCGUCCGUGUGGAACUGUACACACCUUAGUUACUUCAUUUGGCUCCGUUGGCUUGUGUUUCUAGGUGAGGAGUUUCCUACCAGUUCACUGGAAUUCUCGGGUGCCAA | 0.647
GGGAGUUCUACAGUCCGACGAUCCAUGCUGGCUAGAAGUUGGCCACAACUUGAGCAAAACUGCCUCUCACACAGUGAGAUGCACUCAAAGGACCACGUGUUAUCUGGUAAUCCAAAUUGGUUCCCCUGCUCCCUGGAAUUCUCGGGUGCCAA | 0.214
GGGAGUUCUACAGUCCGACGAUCAUGUAAUUAAAGGCUUUUCUUAAUAUGUUUUAACCAAAGAUGUGGAGCAAUCCAAGCCACAUAUCUUCUACAUCAAAUUUUUCCAUUUUGGUUAUUUUCAUAAUCUGGUAUGGAAUUCUCGGGUGCCAA | 0.392
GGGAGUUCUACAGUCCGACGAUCUAUAUAUAGUACUUCUAUAAAUAACAGUUUUUAAGAAAUAGGUAAGUGGGGCAGGUUUGGUGGCUUCUGCCUGUAAUCACUGCAUUCAGAGGGGGCCAAGGCCUGUUUCAUGGAAUUCUCGGGUGCCAA | 0.818

Some of these lines once more (sample 2):
Strand | E-score
CTAATTAG | 0.209
ACGTGCGC | -0.118
ATTAGGAC | 0.242
ACGGAACT | -0.0535
GCGGTAAC | 0.000425
CCTTCGCA | -0.0264
CCCTTCAA | 0.00784
